# Measured values pooled from the literature.
# Every numbered part comes from another study and shows a few of its results, in no order.

# Block 1 — technique: protein binding microarray; form: double-stranded DNA, one strand shown; medium: in vitro; tested at: not given; reference: not given; direction: higher = stronger binding
# Target: Histone acetyltransferase KAT6A, both winged helices, GST fusion (KAT6A, Homo sapiens, UniProt Q92794, residues 1-181)
# Setting: 8-mer, flanks averaged, mean of 2 arrays, mostly near background
# Residues (chain): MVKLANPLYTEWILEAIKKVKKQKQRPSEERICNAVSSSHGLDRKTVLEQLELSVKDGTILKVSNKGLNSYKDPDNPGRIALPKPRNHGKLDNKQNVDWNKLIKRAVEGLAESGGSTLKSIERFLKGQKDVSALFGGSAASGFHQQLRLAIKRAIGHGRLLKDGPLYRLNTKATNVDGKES
Oligonucleotide,E-score
CCCTCATA,-0.151
GCGTGTTA,0.206
CCGGGCAG,0.112
CGGACAAC,0.108
AATGTACG,-0.0673
CCCCTTCG,-0.134
GCGAGGCA,0.0402
ATAAGACA,-0.0511
ACAGGTGG,-0.0956
CGACAGAA,0.147
GCCTTACA,-0.187
GACGTGTA,-0.00413
GGGACGGA,0.185
CCTTACAA,-0.108
GCTGAGAC,-0.112

# Block 2 — technique: RNA Bind-n-Seq; form: RNA; medium: in vitro; tested at: 1 µM; setting: whole 134-nt RNA, ends assumed; with: 150 mM KCl; reference: input library; direction: higher = stronger binding
# Target: Ras GTPase-activating protein-binding protein 1, RRM domain (G3BP1, Homo sapiens, UniProt Q13283)
# Sequence of UniProt Q13283 (whole entry, looked up): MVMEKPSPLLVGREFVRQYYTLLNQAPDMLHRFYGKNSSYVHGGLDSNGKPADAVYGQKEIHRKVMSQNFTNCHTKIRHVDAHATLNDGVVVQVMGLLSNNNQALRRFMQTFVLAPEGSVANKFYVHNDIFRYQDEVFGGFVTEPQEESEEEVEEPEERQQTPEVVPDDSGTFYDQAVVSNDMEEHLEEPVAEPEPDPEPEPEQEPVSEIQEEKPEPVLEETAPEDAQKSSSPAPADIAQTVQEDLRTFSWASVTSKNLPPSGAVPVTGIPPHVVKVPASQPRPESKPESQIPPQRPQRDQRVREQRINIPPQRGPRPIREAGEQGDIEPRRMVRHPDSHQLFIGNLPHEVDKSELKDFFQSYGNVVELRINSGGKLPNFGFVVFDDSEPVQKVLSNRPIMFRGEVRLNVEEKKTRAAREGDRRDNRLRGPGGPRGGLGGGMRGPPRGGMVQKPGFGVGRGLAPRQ
# All sequences stand within: GGGAGUUCUACAGUCCGACGAUC … UGGAAUUCUCGGGUGUCAAGG
Oligonucleotide,log2 enrichment
ACCAUGCAGGUGGGCAUCUUUGGGAAGUGGGGCAAGGGGGGGAUAGGGAGGGGGGUAACACUUUGGGAAGAGGUGGUCCCAGGUCGUUUC,0.622
UUAGAAGAAUUUGGAAGGCCUUAAAUAUAGUAGCUUAGUUUGAAAAAUGUGAAGGACUUUCGUAACGGAAGUAAUUCAAGAUCAAGAGUA,-0.167
UUAAAGAAGAGGGUGUGCGGGACGUCCUUAAGGAUGUACUGCUCCCAUGGUACAAUGCCUAUCGCUUCUUAAUCCAGAACGUUCUGAGGC,-0.253
CCUCAAGUCCUGUGCUACACAUCGUAUGUACCGAAUCGGUGGUUUGGUUUGGAAAGUAUUAUGUUACGCCGUUCGGAUCUGCACUUCCAG,-0.369
UGGCCCUGGUGGCAUGCGGGGAGGAAGAGGUGGCCUCAUGGAUCGUGGUGGUCCCGGUGGAAUGUUCAGAGGUGGCCGUGGUGUAGACAG,1.72
UUGCUGUCACCCGCUGCCUGUCUGCAGGAUCCCGGAUUCCGUAUCAGGGGACCGAAAUUAGUCGGAAAAUAGGAAGCAGGUGCUCGCUUG,-0.347
ACCAUGCAGGUGGGCAUCUUUGGGCAGUGGGGCAAGGGGGGGAUAGGGAGGGGGGUAACACUUUGGGAACAGGUGGUCCCAGGUCGUUUC,-0.447
GCAGGAAGUAAAAACAAAUGGAGAUGCUUCGGAUAGUGGCAGGGGUGGGGGUUGCUAAGGAAAGGGUGGGAUGGGAGUGGGUAAAGAGUU,1.6
UCAAGUCCUGUGCUACACAUCGUAUGUACCGAAUCGGGCCGGGGCCGGGCCGGGGAAAGUAUUAUGUUACGCCGUUCGGAUCUGCACUUC,-0.728
UAACUUUAGAGGAGGAUCUGAUGGAUAUGGCAGUGGACGUGGAUCUGGGGAUGGCUAUAAUGGGUAUGGAGGAGGACCUGGAGGUGGCAA,-0.573
CAAGUCCUGUGCUACACAUCGUAUGUACCGAAUCGGAAAGGGAAAGGGAAAGGGGAAAGUAUUAUGUUACGCCGUUCGGAUCUGCACUUC,-0.0954
UCAUUAGAAGAUCUAAUUGAGAGAGAGGUAACUGGUAUCCUUUUCCUACCAUAAAAACUGAAAGCAGUAUUUAUUGUGAAAUUCUAAUAC,-0.681
UGGCCCUGGUGGCAUGCGGGGAGGAAGAGGUGGCCUCAUGGAUCGUGGUGGUCCCGGUGGAAUGUUCAGAGGUGGCCGUGGUCGAGACAG,2.01
AGUCCUGUGCUACACAUCGUAUGUACCGAAUCAAAUUUUUAAACCCCCAAACCCAAAAAAGUAUUAUGUUACGCCGUUCGGAUCUGCACU,-0.55

# Block 3 — technique: Spec-seq; form: double-stranded DNA, one strand shown; medium: in vitro; tested at: not given; setting: whole probe, mean of replicates; reference: not given; direction: lower = stronger binding; all sequences stand within: GAGTCGTCTCGTCAGCAC … CCGTAGAGCACTCAGGTC
# Target: POU domain, class 5, transcription factor 1, POU domain (Pou5f1, Mus musculus, UniProt P20263, residues 131-289)
# Sequence of UniProt P20263 (131-289, looked up): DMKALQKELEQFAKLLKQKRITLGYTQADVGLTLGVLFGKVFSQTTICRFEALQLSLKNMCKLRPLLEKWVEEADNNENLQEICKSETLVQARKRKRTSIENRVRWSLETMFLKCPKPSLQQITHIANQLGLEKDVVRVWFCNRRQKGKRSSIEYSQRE
Oligonucleotide,relative binding energy [ln ratio]
ATAGAAAT,0.366
ATTGGCAT,0.0174
CGCCTAAT,0.843
ATGCTGAG,0.669
ATGCCATC,0.632
ATTTGTAT,-0.319
ATGCGTAC,0.121
TGCCTAAT,0.792
ATGGTAAT,-1.39
ATGCTTGA,0.431
ATGCATCT,-0.551
ATTCGCAT,-0.55
ATTATTAT,-0.097
GCCTTAAT,0.744
ATGGGCAT,0.668
ATGCCTGT,0.574

# Block 4 — technique: universal PBM; form: double-stranded DNA, one strand shown; medium: in vitro; tested at: not given; direction: higher = stronger binding
# Target: Sal-like protein 4, full length isoform B (SALL4, Homo sapiens, UniProt Q9UJQ4-2, residues 1-616)
# Setting: 8-mer, flanks averaged, mean of replicates
# Residues (chain): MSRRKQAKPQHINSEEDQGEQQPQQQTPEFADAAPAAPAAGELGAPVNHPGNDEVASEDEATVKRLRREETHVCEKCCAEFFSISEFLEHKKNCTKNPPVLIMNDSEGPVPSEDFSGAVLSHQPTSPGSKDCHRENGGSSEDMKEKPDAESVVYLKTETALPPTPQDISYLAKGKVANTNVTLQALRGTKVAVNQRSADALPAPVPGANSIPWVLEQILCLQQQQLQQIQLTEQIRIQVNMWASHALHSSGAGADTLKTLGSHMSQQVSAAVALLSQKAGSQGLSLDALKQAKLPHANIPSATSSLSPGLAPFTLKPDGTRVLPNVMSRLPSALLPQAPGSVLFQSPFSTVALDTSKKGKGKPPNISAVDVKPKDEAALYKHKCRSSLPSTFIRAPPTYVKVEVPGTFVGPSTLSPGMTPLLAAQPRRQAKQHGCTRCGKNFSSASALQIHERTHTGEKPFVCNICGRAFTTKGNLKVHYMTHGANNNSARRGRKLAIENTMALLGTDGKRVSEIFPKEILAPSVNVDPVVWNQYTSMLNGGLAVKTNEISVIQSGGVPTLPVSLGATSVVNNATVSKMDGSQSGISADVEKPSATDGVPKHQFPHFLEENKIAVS
Oligonucleotide,E-score
AAAACCCG,-0.0714
AGATGTGA,0.0708
CTTATAAG,0.244
GCGGCAGA,-0.282
ACATCTAA,0.138
GAACGCGA,-0.101
TATGCTAA,0.197
GCCTCGAA,-0.181
ACTAGTCC,-0.0591
ATGAAAGG,0.217
GAAGTACC,-0.154
CGGCTAAG,-0.212
ATCCAGGA,-0.0704
CCTGAGGA,-0.121
ACTAGGTA,0.128
CACTGAAA,0.0675
GATGCCTA,0.0778
CAAGCTGA,-0.128

# Block 5 — technique: RNA Bind-n-Seq; form: RNA; medium: in vitro; tested at: 365 nM; reference: no-protein control; direction: higher = stronger binding
# Target: RNA binding protein fox-1 homolog 2, RRM domain, GST-SBP tag (RBFOX2, Homo sapiens, UniProt O43251-10, residues 100-194)
# Setting: natural RNA segment, single round, ends assumed
# All sequences stand within: GGGAGUUCUACAGUCCGACGAUC … UGGAAUUCUCGGGUGCCAA
# Residues (chain): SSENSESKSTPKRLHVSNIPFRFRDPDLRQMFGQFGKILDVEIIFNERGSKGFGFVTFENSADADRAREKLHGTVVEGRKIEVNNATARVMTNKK
Oligonucleotide,RBNS enrichment (R)
CCUCCCCCACUGUCUGGGACACAGGACAGGUGUUGCGUCUGACUCUGUCUCCCCCUGUCCAAGAGCUAUAGGCUGGUUGAGGCAAGUGGAACCUUAUCAGUGACUUGGCC,0.414
AGUAGUUCUAUUGGGCACUAUAGUCAGUUGGGAGUGGUUGCUAUACCUUGACUUCAUUUAUAUGAAUUUCCACUUUAUUAAAUAAUAGAAAAGAAAAUCCCGGUGCUUGC,1.11
UUAAGGAUUUUCUGGGUUCCUGUGACCCUCAGGUUAUUUUAAAGCAAUUGGAAGAGCAUAUGAACACGGGCCAGCUAGCAGGAUUUUCACAUCAAGUUAGAAGUCUGAUU,0.548
AAGCCUUAAUGAACAGUGUAUAUACAUCUGUGUAUGCACACUCCACCCCAGAGUGUUUUCAGUGUGCCAGAGAAGCAGCUGUAGCGUUAGGACAUGAGCCUGUCUAGUGU,0.259
UGCCUACAGCCUGCAGUCUGGAGACAAGCUCUUCCGGAGUGCUCUGGGAGCCAGGCCAGGGUGUGAGGGAGGUGCAGAGGCAUCCGGGGCGGGAGCAAGCCCCAGGUUGU,0.378
UGUCUCAGCCUUGUUUUUCUAGAGUUGUGUUUUUCAGUCAUUUCUUCAAGAAAAACUAAAAUGAUUUAGUUGGAGCAAAGCUUUAAGUGUGUUGGUGUGCUUCUGUGUGG,0.889
GGCUCAACUCUGUGUCUCCUGAGCACCAGCAGCCAAGCCUGUUCAUGAUGAUGUGCACACAGUCAUUCUACAGGAGCUUUGCACAGCCUUCCUGCAGUUCUCAAAGGGGA,0.869
UCCAAUGAAAUGUUAUAGGUGUGUGAAAGCAGAUUAAAGAAAGAGGUUCCCAUAUCAUUCUUUCUAAACAAAGCCUGUGAUUUAUGCAGAGUGUCUCUAGCUCUGAAGUU,0.467
UUUCGCUUUUCUUUUUUCUUGAGAGAUCUAAAGAGAAACUGUAGAUUGUUUUCCUGACAGCAAAAGACUAAUGUGACAAAAUGAAGUCAUUGUAAAGAAGCGAUGCAACU,0.714
UGUGUCUAGCAGCCUCUAGGAUCUUGUCAGAGCUGCACCUCUCUGUGAACUGGCCAUUCCUUUCGGUGCUGCUGUCCUUUUUGGGGGGGUUCCUGAUUUCUGUAUACAUG,0.331
AGUAAGGGUUGUGGGUUAUACCGGCAUAGAGAAAAGAAGAAAACUAGAAUUGAAACAACUGUGUCUUAGACAUUUGUUUGAAAAAGCUUCAUCAGGCCUUGGAGCAGUCA,0.467
UUCUUGCCAUUACUCAGUGUUCCUAUAAAGAAAAUAUUAUGAUAUCUUGGAAAGGUUCUAUUCCUGAUCUCCAGCUGUGGUGAGCAAGUUUCCUGAAGUGUUUAUUUUCU,0.301

# Block 6 — technique: protein-binding microarray; form: double-stranded DNA, one strand shown; medium: in vitro; tested at: 2200 nM top; setting: 60-bp whole probe; with: salmon DNA 0.4 mg/ml; reference: random background probes; direction: higher = stronger binding; all sequences stand within: GCCTAGCAC … GTCTTGATTCGCTTGACGCTGCTG
# Target: Interferon regulatory factor 7, full length, phosphomimetic (IRF7, Homo sapiens, UniProt Q92985, residues 1-503, S471D/S472D/S475D/S476D/S477D/S483D/S484D/S487D)
# Residues (chain): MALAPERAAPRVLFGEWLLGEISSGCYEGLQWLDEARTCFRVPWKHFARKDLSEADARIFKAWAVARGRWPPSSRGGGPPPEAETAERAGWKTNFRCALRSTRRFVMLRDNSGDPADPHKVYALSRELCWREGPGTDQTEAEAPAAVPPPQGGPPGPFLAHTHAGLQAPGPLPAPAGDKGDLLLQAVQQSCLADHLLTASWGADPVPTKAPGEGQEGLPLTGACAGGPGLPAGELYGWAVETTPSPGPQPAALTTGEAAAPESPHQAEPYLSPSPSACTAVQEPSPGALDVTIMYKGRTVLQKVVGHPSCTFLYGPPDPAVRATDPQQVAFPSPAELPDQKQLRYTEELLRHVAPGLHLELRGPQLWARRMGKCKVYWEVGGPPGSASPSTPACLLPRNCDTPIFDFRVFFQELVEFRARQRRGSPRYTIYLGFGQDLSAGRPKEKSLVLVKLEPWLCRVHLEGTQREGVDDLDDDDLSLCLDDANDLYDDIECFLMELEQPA
Oligonucleotide,fitted relative affinity [z-score]
GACGGTATCCTACTTCTGACGTGCTAG,1.08
TTAGGTTTCCTACTGTTTTAGTGCTAG,1.24
TTAGGTTTCCTACTGCTTTGGTGCTAG,1.41
GTTCTTTTCTGTTGTCTGTGTGTGCTA,3.44
TCAAAAATGATGTTTTAGACTGTGCTA,-0.821
GGAGTTTCCACCCTTCTCTCGTGCTAG,2.11
TGTGGTGCAGCTCCCTCCTCGTGCTAG,0.0277
GACGGTTTCCTTTTCCCGACGTGCTAG,6.03
TGCTTTCTCCCAAGTCTTGTTGTGCTA,2.01
GACGGTTTCGGGTATCGAGACGTGCTA,5.67
TTAGGTCTCGGACTGAGTTAGTGCTAG,-0.208
TTAGAGATCGGGTATCGATTAGTGCTA,-0.544
TTAGATTTCAGTTCCGAATAGTGCTAG,1.54
TTAGGACTGGGTTTCGATTAGTGCTAG,2.67

# Some of these lines once more (block 3):
Oligonucleotide,relative binding energy [ln ratio]
ATGCTGAG,0.669
ATGCCATC,0.632
ATTTGTAT,-0.319
ATGCGTAC,0.121
TGCCTAAT,0.792
ATGGTAAT,-1.39
ATGCTTGA,0.431
ATGCATCT,-0.551
